Assay results collected from several papers.
Numbered parts are unrelated; each lists some results of a single study. Changes are numbered by the printed parent chain.

Block 1 — technique: RNA Bind-n-Seq; form: RNA; medium: in vitro; tested at: not given; baseline: input RNA pool; reading: higher = stronger binding
Target: RING finger protein unkempt homolog, zinc fingers 1-6, GST-SBP tag (UNK, Homo sapiens, UniProt Q9C0B0, residues 30-357)
Notes: RNA with constant flanks, human and mouse sites, ends assumed
Construct (chain): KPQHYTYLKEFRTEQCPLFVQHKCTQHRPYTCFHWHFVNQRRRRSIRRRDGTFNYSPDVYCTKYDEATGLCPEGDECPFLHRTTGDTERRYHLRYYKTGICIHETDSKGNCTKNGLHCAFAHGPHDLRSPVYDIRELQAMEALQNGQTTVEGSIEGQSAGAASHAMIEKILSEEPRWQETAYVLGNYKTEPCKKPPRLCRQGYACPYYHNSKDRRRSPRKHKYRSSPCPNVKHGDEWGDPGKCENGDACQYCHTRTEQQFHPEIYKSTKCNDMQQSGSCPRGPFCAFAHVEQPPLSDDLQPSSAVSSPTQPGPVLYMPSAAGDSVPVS
| Oligonucleotide | bound/input enrichment [ratio] |
| --- | --- |
| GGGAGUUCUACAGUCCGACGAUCCUUGGCCAGCUCCACCACUGUCAGGUUCUCCAGUUCUGACUGGGGUUGUGGUGAUGGCGGUAGGUGGGAAGAUCCACCCUGGCUCAGGAGCCUGACUUGACACUGGUUCUUUCAGCCCUACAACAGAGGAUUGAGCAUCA | 0.0664 |
| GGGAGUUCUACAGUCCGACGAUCCGGGAUGACCAGACUCCCGGACUCCUCAGGCAGUGCCCUUCCUCCCCACUCUUCCUCCCCACAGACAGGCCUCUGCUCCUGCGCCUGCCUGCAUGCUCUCUCUUGUCGUUGGAGCCUGGACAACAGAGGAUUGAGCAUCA | 1.04 |
| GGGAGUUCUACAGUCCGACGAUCGGAGUGUUUGGUGGACCAUACCCUUUUGGCAUUGAUCCAAUUUGGAACAUUGCUACCAAUAAACUGACGUUCUUGAACUCCUUUAAGAUGAAGAUGUCUGUUAUCCUUGGUAUCAUCCAUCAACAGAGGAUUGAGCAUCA | 0.133 |
| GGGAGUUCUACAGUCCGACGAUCAGAGAAGAGUUGGUUGAUCGUGUUUUUGAUGAAAGUCUCAACUUCCGAAAGAUACCUCCAUUAGUUCAUUCUAAAACACCAGAAGGAAACAACGGUCGGUCUGUUGACUCGAGGCCUCAGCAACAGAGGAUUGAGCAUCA | 0.158 |
| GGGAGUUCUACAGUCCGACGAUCCAGGGCAGCACCACCCCCUCCUCCUUCUUUCCACACCUGCAAACCCUUUUGCCUGGGCUGCAUAGUUAGUGUUAAUUACAUCGCAGCUUUGAGGGCUCCUGUGGCAAAUACCCGGAUUAACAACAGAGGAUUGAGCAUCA | 0.461 |
| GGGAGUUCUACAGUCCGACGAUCUUGCAUCCAGCAGCAGCUAUUUUGGGGAGCAGCUGUGGUCGUUAUAUAAACAGAGUUUCAGCCCAAAGCUUAGGCUUUUUAUCCAGCUUCAAGCAGAAAAUACGGGGAGAGUCGAGCAGUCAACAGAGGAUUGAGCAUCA | 0.372 |
| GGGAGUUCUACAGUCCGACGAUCCCAGCCGGUACAGACCCAAGGAUCUUGUCUUUAGCUGCUGAAGUUGCAAAAAGUCCUGAACAAAAUGUUCCUGUUAUAUUAUUGAAGUUAAAAGAAAUAAUAAACAACACCCCUUUGGGACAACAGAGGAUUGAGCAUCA | 0.22 |
| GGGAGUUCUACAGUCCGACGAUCGGUUUUCCUAAAGUCAACAUUCUCCUCAGGGAUGCCAUUGAAAAGUUAUUUCCUGAUGCCAUUAGAAUGCGAGUUGAAGACAUUCAGCAGAAUAAUGAUGUAGUCCAAAGUCUUGCAGCCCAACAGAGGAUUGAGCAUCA | 0.255 |
| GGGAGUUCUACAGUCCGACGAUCGUGUGUGAAGAUUUGGAAAAUAUUGAAGGACUGCACCACUUGUAUGAAAUUAUCAAAGGCAUCUUUCUCUUGAAUCGAACUGCUCUUUUUGAAGUUAUGUUCUCUGAAGAAUGUAUAAUGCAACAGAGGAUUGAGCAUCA | 0.414 |
| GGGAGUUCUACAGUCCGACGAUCGCAGCAACCACUGGUGAGUUAGCUGCUAACAAGUCUGAGAUGGCCUUCAAGGCCCAGAAUGCCACUACUAAAGUGGGCCCAAAUGCCACCUACAAUUUCUCUCAGUCUCUCAAUGCCAAUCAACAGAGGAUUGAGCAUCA | 0.138 |
| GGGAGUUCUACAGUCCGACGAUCGCAAUCAAAAGAUUUAGUAGCAUAAAUGACAGGUCUCUGCUCCCUGCUUUAUCUUGUGUCCAGACAGCCCUGCUUCAUCUUUUGGAUAUGGGCUGGGAACCCAGUGAUCUUGCCUUCUUUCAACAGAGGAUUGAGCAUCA | 0.147 |

Block 2 — technique: DHFR PCA, deep sequencing; medium: yeast; with: (+)-ABA 0.032 µM; baseline: wild-type fitted maximum; reading: higher = stronger binding
Target: ABI1, truncated, D143A, DHFR fusion (Arabidopsis thaliana)
Notes: methotrexate growth selection, single substitutions
Starting sequence: PYL1, truncated, DHFR fusion (Arabidopsis thaliana); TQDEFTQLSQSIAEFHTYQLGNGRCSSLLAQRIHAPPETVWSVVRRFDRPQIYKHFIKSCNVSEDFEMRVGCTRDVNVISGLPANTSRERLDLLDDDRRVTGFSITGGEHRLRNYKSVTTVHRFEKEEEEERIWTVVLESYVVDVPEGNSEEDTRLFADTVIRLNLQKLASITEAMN; partner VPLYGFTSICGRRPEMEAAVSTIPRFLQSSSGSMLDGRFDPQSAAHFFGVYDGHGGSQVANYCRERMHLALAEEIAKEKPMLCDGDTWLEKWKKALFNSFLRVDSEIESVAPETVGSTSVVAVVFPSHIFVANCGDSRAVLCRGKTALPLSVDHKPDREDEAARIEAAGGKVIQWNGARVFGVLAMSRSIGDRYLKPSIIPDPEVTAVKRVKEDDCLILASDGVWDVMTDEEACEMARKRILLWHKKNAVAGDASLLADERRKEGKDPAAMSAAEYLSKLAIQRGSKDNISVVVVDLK
| Substitution | relative binding score |
| --- | --- |
| N85C | 53.1% |
| V78F | 102% |
| P37Y | -2.88% |
| G107H | 11.1% |
| G108T | -3.73% |
| L8Q | 6.07% |
| T119R | -1.22% |
| Q2M | 45.2% |
| F5I | 23.5% |
| G71E | 0.102% |

Block 3 — technique: RNA Bind-n-Seq; form: RNA; medium: in vitro; tested at: 200 nM; notes: whole 134-nt RNA, ends assumed; with: 150 mM LiCl; baseline: input library; reading: higher = stronger binding; library: 7-deaza-guanosine replaces G
Target: Fragile X messenger ribonucleoprotein 1, C-terminal low-complexity region (Fmr1, Mus musculus, UniProt P35922)
| Oligonucleotide | log2 enrichment |
| --- | --- |
| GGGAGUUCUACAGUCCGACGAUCUCAUGGCUAUCAUUAGCCACAGGUACUGCUGAUUAUAAGGCCAGUAAAAUUUUAGUACCUGGAGGUUUGACUCUAAUUUUUGCACUGAUGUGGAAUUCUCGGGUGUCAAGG | -3.36 |
| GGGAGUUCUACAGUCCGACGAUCUAACUUUACAGGAGGAUCUGAUGGAUAUGGCAGUGGACGUGGAUUUGGGGAUGGCUAUAAUGGGUAUGGAGGAGGACCUGGAGGUGGCAAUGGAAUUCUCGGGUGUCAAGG | 0.477 |
| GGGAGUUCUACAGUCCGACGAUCUAACUUUAGAGGAGGAUCUGAUGGAUAUGGCAGUGGACGUGGAUUUGGGGACGGCUAUAAUGGGUAUGGAGGAGGACCUGGAGGUGGCAAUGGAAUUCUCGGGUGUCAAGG | 0.361 |
| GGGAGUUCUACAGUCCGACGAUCUUUGAAAAAGAAGAAAAAGAAAAAGAAGGGUAAGGCAUUAAAAAAGUCUUUAUAAAUUUUCUCCAAAAUAAAUGUUUGAUUUUAGCCCUAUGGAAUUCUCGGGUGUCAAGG | -2.91 |
| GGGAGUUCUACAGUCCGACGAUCUGCCAAAGUAUGGCAAGAAAUUGCUCCUGGAAAUACUGAUGCCACCCCAGUAACUCAUGGAACUGAAAGCUCUUGGCAUGAAAUAGCAGCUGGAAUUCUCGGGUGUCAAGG | 1.55 |
| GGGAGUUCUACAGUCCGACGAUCGUCCUGUGCUACACAUCGUAUGUACCGAAUCAAACCCCCAAAUUUAAAUUUUUUUAAAAAAGUAUUAUGUUACGCCGUUCGGAUCUGCACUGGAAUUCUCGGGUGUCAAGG | 0.933 |
| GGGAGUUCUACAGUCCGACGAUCCCUGUGCUACACAUCGUAUGUACCGAAUCGGGCCCCCCCGGCCCCCCCGGCCCCCCCGGGAAAGUAUUAUGUUACGCCGUUCGGAUCUGCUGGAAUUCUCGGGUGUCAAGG | 1.15 |
| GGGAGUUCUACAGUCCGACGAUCCCUGUGCUACACAUCGUAUGUACCGAAUCGGGGAAAAAAAGGGGAGGGGUUUUUUUGGGGAAAGUAUUAUGUUACGCCGUUCGGAUCUGCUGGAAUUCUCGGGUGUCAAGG | -0.4 |
| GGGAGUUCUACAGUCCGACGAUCUCCCUGAGACGGCGGGCAACAGCAUCGGCAGGAACGCCAUGGCCGUCCCCUCCCAGCUCUUACCUUACCAUCGACCUCACAGACGACACAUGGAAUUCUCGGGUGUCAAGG | 1.65 |
| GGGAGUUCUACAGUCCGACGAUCUGGGAGGUGGAUUUUGUUUAUUUUUUUACCUCAUUUCCAGGGGUGGGAAUUUUUUUUUAAUAUGUGUCAUGAAUAAAGUUGUUUUUGAAAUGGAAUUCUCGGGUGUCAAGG | -0.516 |
| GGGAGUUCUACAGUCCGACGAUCCUGUGCUACACAUCGUAUGUACCGAAUCGGGGUUUUUUUGGGUUUUUUUGGGUUUUUUUGGAAAGUAUUAUGUUACGCCGUUCGGAUCUGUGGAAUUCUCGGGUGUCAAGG | 0.894 |

Block 4 — technique: protein-binding microarray; form: double-stranded DNA, one strand shown; medium: in vitro; tested at: 940 nM top; notes: 60-bp whole probe; with: salmon DNA 0.4 mg/ml; baseline: random background probes; reading: higher = stronger binding; constant ends, left off below: GCCTAGCAC … GTCTTGATTCGCTTGACGCTGCTG
Target: Interferon regulatory factor 5, full length, phosphomimetic (IRF5, Homo sapiens, UniProt Q13568-2, residues 1-514, S451D/S453D/S456D/S462D)
| Oligonucleotide | fitted relative affinity [z-score] |
| --- | --- |
| GACGATATCGGGACTGGAGGCGTGCTA | -0.398 |
| GACGAACGGAGTATCGAGACGTGCTAG | 1.02 |
| GACGAACTGAGTTTCGAGAGGTGCTAG | 3.34 |
| TTAGGTTTCGGATTGGGTTAGTGCTAG | 8.95 |
| GACTATATCAGACTGGAGACGTGCTAG | -0.357 |
| TGCAACATCTACAATGGCTTTGTGCTA | -0.177 |
| GACGGTTTCGGTTTCGGAACGTGCTAG | 14.1 |
| CCCCCAATCTCTCTTCACATGTGCTAG | 1.37 |
| GGCGGTTTCCTTATCCTGACGTGCTAG | 2.05 |
| ATTTTTTTCTAATTGAAATCGTGCTAG | 0.424 |
| TATAAATTATCTTTAATCCTGTGCTAG | 0.265 |
| TATCAGGGCATCCCCTTGAAGTGCTAG | -0.0465 |
| GACGATTTCAGACTGGGGACGTGCTAG | -0.104 |
| GACGGTATACTACTGCTGACGTGCTAG | -0.19 |
| TCACCTTGAACTTTGGCACTGTGCTAG | 0.136 |
| TTAGGAATGCTTTTCCTTTAGTGCTAG | -0.346 |
| CCATTTTGGTTTTCTCTATTGGTGCTA | 1.41 |
| TCAAGTTGTACTTTCTAACTGTGCTAG | 0.0199 |
| GACGGTTCCCTGTTCCTGACGTGCTAG | 0.646 |
| TTAGGTCTCGGTATCGGATAGTGCTAG | 4.95 |
| GACGGTATCCTACTACTGACGTGCTAG | 0.214 |
| TCAGTGATCAGTCTGATACTGTGCTAG | -0.266 |
| TTAGGTTTAGGGTTTCGGTTAGTGCTA | 5.44 |
| GACGATCTCAGTTTCGATACGTGCTAG | 8.45 |
| TTAGGTATCGGACTAGGTTAGTGCTAG | 3.82 |

Block 5 — target: CCND3, cyclin fold, Cln2 fusion (human); technique: yeast growth competition, sequencing; medium: yeast; notes: weak parent motif; baseline: not given; reading: higher = stronger binding
Starting sequence: SCAPER docking peptide (human); SNARRSLNFGGST
| Substitution | normalised enrichment score |
| --- | --- |
| A3C | 0.0856 |
| F9V | 0.0374 |
| N8I | 0.198 |
| G11Q | 0.12 |
| T13M | 0.194 |
| L7T | 0.13 |
| G11I | 0.129 |
| T13Q | 0.154 |
| G10W | 0.224 |
| G10L | 0.123 |
| T13F | 0.16 |
| T13P | 0.135 |
| S6V | 0.175 |
| G10T | 0.118 |
| N2D | 0.0464 |
| S12I | 0.21 |
| L7A | 0.262 |
| A3T | 0.188 |
| N2I | 0.158 |
| A3G | 0.111 |
| S1T | 0.154 |
| S6M | 0.21 |
| N8S | 0.245 |
| S12Q | 0.115 |
| R5H | 0.128 |

Excerpt of the above (block 4):
| Oligonucleotide | fitted relative affinity [z-score] |
| --- | --- |
| TCAAGTTGTACTTTCTAACTGTGCTAG | 0.0199 |
| GACGGTTCCCTGTTCCTGACGTGCTAG | 0.646 |
| CCATTTTGGTTTTCTCTATTGGTGCTA | 1.41 |
| GACGATATCGGGACTGGAGGCGTGCTA | -0.398 |
| TTAGGTATCGGACTAGGTTAGTGCTAG | 3.82 |
| ATTTTTTTCTAATTGAAATCGTGCTAG | 0.424 |
